# Measurements from different studies.
# Every numbered part comes from another study and shows a few of its results, in no order. Positions count from the first letter of the parent shown.

# Study 1
# Target: Histone acetyltransferase KAT6A, both winged helices, GST fusion (KAT6A, Homo sapiens, UniProt Q92794, residues 1-181)
# Method: protein binding microarray
# Molecule type: double-stranded DNA, one strand shown
# Sample: in vitro
# Concentration: not given
# Notes: 8-mer, flanks averaged, mean of 2 arrays, mostly near background
# Reference: not given
# Direction: higher = stronger binding
# Target sequence (chain): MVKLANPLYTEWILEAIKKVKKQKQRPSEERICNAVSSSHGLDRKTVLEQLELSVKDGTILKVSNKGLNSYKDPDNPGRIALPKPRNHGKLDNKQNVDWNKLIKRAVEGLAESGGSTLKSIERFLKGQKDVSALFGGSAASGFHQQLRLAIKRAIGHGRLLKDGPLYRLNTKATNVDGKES
Sequence,E-score
GCGATTAA,0.0782
AACCCTCC,-0.0973
GTGGACAC,-0.00656
CGACCGTC,0.115
AAGTAAAA,-0.122
GCCGACGA,0.167
CGTTAGGC,0.152
GCCATGAA,-0.0932
ACCTGGTG,-0.152
AATCACAC,-0.107
CAAGCGAG,0.0296
CATGCTAG,-0.153
ACGCATAG,0.133
CCGCAACA,0.18
CATGACAA,-0.175
GCAGCTCA,-0.164
ACACTAAC,0.0335
CTGGACAG,-0.115
GGGGAAAC,0.0947
AAACTAAC,-0.0543
AAGTTGAA,-0.205
GATTCCCA,-0.116
CCGGTATA,0.198
AGCGAGTG,0.0323
AGAGCTCA,-0.159

# Study 2
# Target: CRIPT, C-terminal peptide
# Method: DHFR complementation, deep sequencing
# Sample: yeast
# Notes: single substitutions, model-inferred values
# Reference: wild type
# Direction: higher = weaker binding
# Starting sequence: ERBIN, PDZ domain 1 (human); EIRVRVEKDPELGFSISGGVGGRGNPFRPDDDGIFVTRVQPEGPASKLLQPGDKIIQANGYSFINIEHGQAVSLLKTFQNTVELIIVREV; partner TKNYKQTSV
Change,binding free energy change [kcal/mol]
D32K,0.476
I34H,1.13
K76M,0.432
A71I,1.28
E42P,0.61
E89Q,0.0684
F63W,1.18
I85N,0.00133
V6E,0.908
I64R,0.0414
Q50M,-0.0675
R28Y,-0.00806
V20A,-0.171
F63Q,0.842
E67H,0.221
V90Q,-0.0383
R38Y,0.104
L48E,0.119
G69R,0.346
L12V,1.38

# Study 3
# Target: CCND1, cyclin fold, Cln2 fusion (human)
# Method: yeast growth competition, sequencing
# Sample: yeast
# Notes: weak parent motif
# Reference: not given
# Direction: higher = stronger binding
# Starting sequence: SAMHD1 docking peptide (human); ASKSRVQLFKDDP
Change,normalised enrichment score
R5Q,0.535
L8M,0.139
Q7G,0.208
F9K,-0.0944
D12G,0.264
R5T,0.513
S2F,0.386
Q7T,0.135
R5V,0.91
F9H,0.077
S2D,0.408
S4W,0.215
D11C,0.318
R5L,0.0194
D11G,0.321
S4M,-0.0961
K3G,0.692
K3Q,0.646
K3L,0.705
D12K,0.0492
R5D,0.741
Q7W,0.373
V6P,-0.0266
S4K,-0.00647
Q7N,0.222

# Study 4
# Target: ABI1, truncated, D143A, DHFR fusion (Arabidopsis thaliana)
# Method: DHFR PCA, deep sequencing
# Sample: yeast
# Notes: methotrexate growth selection, single substitutions
# With: (+)-ABA 0.032 µM
# Reference: wild-type fitted maximum
# Direction: higher = stronger binding
# Starting sequence: PYL1, truncated, DHFR fusion (Arabidopsis thaliana); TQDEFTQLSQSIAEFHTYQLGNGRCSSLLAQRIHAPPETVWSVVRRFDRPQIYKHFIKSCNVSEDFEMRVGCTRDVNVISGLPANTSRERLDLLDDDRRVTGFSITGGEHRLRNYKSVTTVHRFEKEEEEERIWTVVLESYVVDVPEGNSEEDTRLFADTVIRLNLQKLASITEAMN
Change,relative binding score
D153Q,1.25%
N85H,63.2%
H110Y,18.4%
H16G,3.12%
V100S,-1.04%
V40N,-9.74%
T17C,2.8%
L164T,12.5%
Q7R,15.3%
H16K,-2.79%
V136H,-8.21%
N61T,55.3%
S26T,24.7%
N61M,21.8%
V78D,0.52%
E64A,34.6%
L8R,0.929%
R49Q,39.9%
T86Y,24.8%
T39N,0.64%
I52A,30%
S59F,-1.71%
V62P,-3.13%
R69P,2.98%
W134I,22.9%

# Study 5
# Target: TEF, bZIP domain (human)
# Method: DHFR protein complementation
# Sample: yeast
# Notes: single substitutions, most at no-binding floor
# Reference: wild-type JUN-FOS pair
# Direction: higher = stronger binding
# Starting sequence: JUN, bZIP domain (human); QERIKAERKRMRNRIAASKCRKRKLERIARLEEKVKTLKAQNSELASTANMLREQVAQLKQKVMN; partner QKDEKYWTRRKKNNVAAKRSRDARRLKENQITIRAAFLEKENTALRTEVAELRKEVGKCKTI
Change,binding fitness [natural log]
S43G,-1.37
Q55S,-1.46
I28F,-1.57
A49W,-1.59
M51N,-1.48
S47A,-1.4
K36P,-1.5
R53H,-1.6
E33Q,-1.68
K36S,-1.45
E54D,-1.36
R53A,-1.27
L52W,-1.48
E33H,-1.43
K39P,-1.52
V35M,-1.46
V56T,-1.54
A46D,-1.49
A29N,-1.44
V35Q,-1.49
L31A,-1.45
T48M,-1.1
M51Q,-1.46
A57Y,-1.32
S43H,-1.48

# Study 6
# Target: RNA binding protein fox-1 homolog 2, RRM domain, GST-SBP tag (RBFOX2, Homo sapiens, UniProt O43251-10, residues 100-194)
# Method: RNA Bind-n-Seq
# Molecule type: RNA
# Sample: in vitro
# Concentration: 365 nM
# Notes: natural RNA segment, single round, ends assumed
# Reference: no-protein control
# Direction: higher = stronger binding
# Residues (chain): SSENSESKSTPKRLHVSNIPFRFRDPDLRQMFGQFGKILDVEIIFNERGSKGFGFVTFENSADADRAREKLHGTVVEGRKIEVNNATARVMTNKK
Sequence,RBNS enrichment (R)
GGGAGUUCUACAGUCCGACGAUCUUUACCAUCUUGGCUUUAGUAGGUAUAGAAGAAAGUGGAUUACCAUCUUUAUUUUGUAAUGUGUUAAAUAAGCAUUAUAUGCUGGUAGAAUCUAGUUUAAUUGUUUCAGGUGGAAUUCUCGGGUGCCAA,0.549
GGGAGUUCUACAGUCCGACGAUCAAGAGAUUCCUAUUACUGCAGUACAUACGUCUGCCAGGGGUAACCUGGCCACUGUCCCUGUCCUUCUACAGAACCUGAGGGCAAAGAUGGUGGCUGUGUCUCUCCCCGGUUGGAAUUCUCGGGUGCCAA,0.242
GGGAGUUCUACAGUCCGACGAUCACAGUAUGUUUGUCAGCCAACUGAUUUAAAAGGCCUUUAACUGUUUUGGUUGUUGUUUUUUUUUUAAGCCACUCUCCCCUUCCUAUGAGGAAGAAUUGAGAGGGGCACCUUGGAAUUCUCGGGUGCCAA,0.441
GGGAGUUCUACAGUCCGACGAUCGUAAACAAAUUAAGAGUUAUUCAUUCAAAUUUUUUGCAGUGUUAAUCUGUAAAUGAUGGCUUGAUGUACAGAAAAUGUAUUUUUGCUUAAAAGAUGCCUGGGUACCUUUUUGGAAUUCUCGGGUGCCAA,0.545
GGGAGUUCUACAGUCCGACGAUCGGGGUGUUUCUGCACUUGGCUAUGUGUGUCUUGUCUGAUGUCUGUCUUCUGUAGCUUUGCCUCUAUCAGGGCUGGAGUGGUGCAGCCCCUGGCAUCUCAGACAUGGUUCCUGGAAUUCUCGGGUGCCAA,1.08
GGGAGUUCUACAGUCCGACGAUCUAAGGAGACUUCCUGUGGGUUGCCAUGUCGCACGUCCGUUAGAUCUUGAUUUUACAGGUGAGGGUGGUUGCCAAAGGUGAUAAGAAAAGCAGCCAACAGGCUCCCUCUCAUGGAAUUCUCGGGUGCCAA,1.4
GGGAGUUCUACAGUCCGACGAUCCGUCUUUCCGUUCGUUGGUUUUCUGUGUGUAAGGAGUAGCAUUGCUGUUGGCGCCUAACCUCGCGUGCACUGCAUUCUCAACCCCGUACCAGUGCAUCAUCAGAAGCCUUUGGAAUUCUCGGGUGCCAA,0.229
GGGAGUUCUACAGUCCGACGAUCGUUGCCAAACAACUCCCUGAGGCCUCUCCGCACCACCUCAGCGGGCAGGAGGUCCCACCAUGUGGACAGACAUAGCCCAAGGAGGCACCACAGGUCUAUGUGUGCUGGGGUGGAAUUCUCGGGUGCCAA,0.393
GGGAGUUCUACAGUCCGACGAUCUAAUUUUUGAAGAAUAUCACAAAGUUGCUAUUAUGGUAAACUAGUUUCACACUUCAGCAAACAUAAGGAGGACAGCUUUGUUAAUAGCUAAAAAGUACAAAUUAAAAGAUUGGAAUUCUCGGGUGCCAA,0.303
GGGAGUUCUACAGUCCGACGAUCCUCUUCACCUAAGUGUUUAUAACCAGCAGUACCCUGCUACAAGCCUUGGGUGCAGCCAUCACUGGAUUUUGAUCGUCAGGCCAGCAGGAUGGAUGACAUCUCAUUGAUAGUGGAAUUCUCGGGUGCCAA,0.364
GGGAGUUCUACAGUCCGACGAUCGCAUCCUGUCCAUUUUUAACCUGUGUUCUGCCAGUAUGACUGUGUAGCUCAGUCAUAUUGAACAGGGAGGUGGGGAUGCUGUUGAUGGGCUGUUAAAUCGGAAAGGAUGUUGGAAUUCUCGGGUGCCAA,0.544
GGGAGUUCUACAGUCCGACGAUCUUUCCAAAGUAAGUUAUUGAAGCUGUGAUUGACAUUUUUCUCAUAAUGAAUCCUCUCAGGACAUUGUGUAGCCUAUGGUAAGUACAAAGGGAGAGGAAGACAUUUUGAAUUGGAAUUCUCGGGUGCCAA,0.417

# For quick reference, copied from above (study 3):
Change,normalised enrichment score
R5T,0.513
S2F,0.386
Q7T,0.135
R5V,0.91
F9H,0.077
S2D,0.408
S4W,0.215
D11C,0.318
R5L,0.0194
D11G,0.321
S4M,-0.0961
K3G,0.692
K3Q,0.646
K3L,0.705
D12K,0.0492
R5D,0.741
Q7W,0.373
V6P,-0.0266
S4K,-0.00647
Q7N,0.222
